Results collected from several papers.
Compare with care: the assays were run in different laboratories. ± marks the error that the study gave. ≈ marks a conversion by molar mass, not a printed value.
Organism: Klebsiella pneumoniae

For `CCCCCOc1ccccc1C(=O)/C=C/C=C/c1ccccc1`, “zone of inhibition” read 8 mm (MTCC 109; 1 mg/mL, 18 h).
With `colistin` the MIC was 4 µg/mL (NCTC 13424; 5% CO2).
For `CC[C@H]1OC(=O)[C@H](C)[C@@H](O[C@H]2C[C@@](C)(OC)[C@@H](O)[C@H](C)O2)[C@H](C)[C@@H](O[C@@H]2O[C@H](C)C[C@H](N(C)C)[C@H]2O)[C@](C)(O)C[C@@H](C)CN(C)[C@H](C)[C@@H](O)[C@]1(C)O`, the sensitive strains was 0% (community-acquired pneumonia patients; Fine score below 70).
`CCCCCCCCCC(=O)N[C@@H](CCN)C(=O)N[C@H](C(=O)N[C@H](C(=O)N[C@H](CC(C)C)C(=O)N[C@@H](CC(C)C)C(=O)N[C@@H](CCN)C(=O)N[C@@H](C(=O)N[C@@H](CC(C)C)C(=O)N[C@@H](CO)C(N)=O)C(C)C)[C@@H](C)O)[C@@H](C)CC` has an MIC of over 2 µg/mL (checkerboard, measured: rifampicin; ATCC 13883; sensitization to antibiotics, with: compound at 4 µg/mL).
The sensitive strains of `CC[C@H]1OC(=O)[C@H](C)[C@@H](O[C@H]2C[C@@](C)(OC)[C@@H](O)[C@H](C)O2)[C@H](C)[C@@H](O[C@@H]2O[C@H](C)C[C@H](N(C)C)[C@H]2O)[C@](C)(O)C[C@@H](C)C(=O)[C@H](C)[C@@H](O)[C@]1(C)O` is reported as 0% (community-acquired pneumonia patients; Fine score 70 or more).
`N#CC(=Cc1cn(-c2ccccc2)nc1-c1ccccc1)C1=NC(=O)CS1` has an MIC of 0.49 µg/mL (≈ 1.32 µM) (microbial growth, broth dilution).
`CNC(C)C1CCC(N)C(OC2C(N)CC(N)C(OC3OCC(C)(O)C(NC)C3O)C2O)O1` (stereo not shown) has an inhibition zone of 32 mm (microbial growth, well diffusion; 15000 µg/mL, 24 h).
Under “relative polysaccharide aggregation”, `CC[C@H](C)[C@H](NC(=O)[C@@H]1CCCN1C(=O)[C@H](CCCNC(=N)N)NC(=O)[C@@H]1CCCN1C(=O)CNC(=O)[C@@H]1CCCN1C(=O)[C@H](CCCNC(=N)N)NC(=O)[C@@H]1CCCN1C(=O)[C@H](Cc1ccccc1)NC(=O)[C@@H]1CCCN1C(=O)[C@H](CC(C)C)NC(=O)[C@@H]1CCCN1C(=O)[C@H](CCCNC(=N)N)NC(=O)[C@@H]1CCCN1C(=O)[C@@H](NC(=O)[C@@H]1CCCN1C(=O)[C@H](CCCNC(=N)N)NC(=O)[C@@H]1CCCN1C(=O)CNC(=O)[C@@H]1CCCN1C(=O)[C@H](CCCNC(=N)N)NC(=O)[C@@H]1CCCN1C(=O)[C@H](Cc1ccccc1)NC(=O)[C@@H]1CCCN1C(=O)[C@H](CC(C)C)NC(=O)[C@@H]1CCCN1C(=O)[C@H](CCCNC(=N)N)NC(=O)[C@@H]1CCCN1C(=O)[C@@H](NC(=O)[C@@H]1CCCN1C(=O)[C@H](CCCNC(=N)N)NC(=O)[C@@H]1CCCN1)[C@@H](C)CC)[C@@H](C)CC)C(=O)N1CCC[C@H]1C(=O)N[C@@H](CCCNC(=N)N)C(=O)N1CCC[C@H]1C(=O)O` is recorded as 0.32 (SDS-PAGE; 100 µM, with: polysaccharide 300 µg/mL; relative to: bac7).
For `thrombospondin-1`, “fold reduction in CFU” read 5.5 ± 0.3 fold (43816, Thbs1 knock-out mice, peritoneal neutrophils; intraperitoneal, 10 µg/mouse, dosed 30 min before infection; relative to: vehicle).
`CSc1c(-c2nc3ccccc3s2)c(N)n(NS(=O)(=O)c2ccccc2)c(=O)c1C#N` gave an inhibition zone of 19 mm (microbial growth, well diffusion; 15000 µg/mL, 24 h).
For `CCOC(=O)c1c(N)csc1-c1cn(-c2ccccc2)nc1-c1ccc(C)cc1`, the MIC was 0.25 µg/mL (≈ 0.62 µM) (microbial growth, broth dilution).
The inhibition zone of `Nc1ccc(S(=O)(=O)Nc2ncccn2)cc1` is reported as 20.4 mm (microbial growth, well diffusion; 15000 µg/mL, 24 h).
`CC1(C)S[C@@H]2[C@H](NC(=O)[C@H](N)c3ccc(O)cc3)C(=O)N2[C@H]1C(=O)O` has a sensitive strains of 0% (community-acquired pneumonia patients; Fine score below 70).

For quick reference, copied from above:
For `CCCCCOc1ccccc1C(=O)/C=C/C=C/c1ccccc1`, “zone of inhibition” read 8 mm (MTCC 109; 1 mg/mL, 18 h).
With `colistin` the MIC was 4 µg/mL (NCTC 13424; 5% CO2).
